Measured values gathered from unrelated publications.
Several values in a cell are separate wells, animals, samples, runs or records. Values after ≈ are worked out from the molar mass of the structure shown.

For `C[C@@H]1C(=O)O[C@@H](C)/C=C/C=C\[C@@H](C)[C@@H]2C=C[C@@H]3C[C@@]4(C)O[C@H]4[C@@H](C)[C@H]3[C@@H]2C(=O)C(Cl)(Cl)C1=O`, the MIC was 0.1 µg/mL (≈ 0.202 µM) (Staphylococcus aureus; MRSA clinical isolate; OXA FA resistant).
`COC1C=COC2(C)Oc3c(C)c(O)c4c(c3C2=O)C2=NC3(CCN(CC(C)C)CC3)NC2=C(NC(=O)C(C)=CC=CC(C)C(O)C(C)C(O)C(C)C(OC(=O)Nc2cnccn2)C1C)C4=O` (centres unmarked) has an IC90 of 79 nM (Mycobacteroides abscessus; bacterial growth; subsp. abscessus M9 clinical isolate).
For `CN(Cc1ccc(C2(C(F)(F)F)CCC2)cc1)Cc1cccc2ccccc12`, the inhibition zone was 15.5 mm (Trichophyton rubrum; microbial growth, disc diffusion; ATCC28188; 0.004 µg/mL, 6 days).
`Cc1cccc2c1N(C(=O)n1ccnn1)CC2` has a germination rate of 16.7% and 40% and 10% and 34.6% and 15% and 19.4% (Arabidopsis thaliana; kai2 mutant, seeds; 3 µM).
The IC50 of `COC1=CC2=NCCc3c[nH]c(c32)C1=O` is reported as 4430 nM (Babesia divergens; parasite growth, SYBR Green; 60 h, blood stage).
The plaque reduction of `O=C(Oc1cc(OC(=O)c2cc(O)c(O)c(O)c2)c2ccccc2c1)c1cc(O)c(O)c(O)c1` is reported as about 40% (herpes simplex virus 2; plaque; Vero; 10 µM, added post infection).
The ED50 of `C=C(NC(=O)c1csc(-c2nc3c(cc2O)-c2nc(cs2)C(=O)NC(C(C)O)C(=O)NC(=C(C)OC)c2nc(cs2)C(=O)NC2c4nc(cs4)C(=O)NC(COC(=O)c4c5c6c(cccc6n4O)COC(=O)C(OC4CC(C)(O)C(N(C)C)C(C)O4)C2OC5)c2nc-3cs2)n1)C(N)=O` (centres unmarked) is reported as 4.8 mg/kg (Streptococcus pneumoniae; -25, immunocompromised mice, lung infection; qd dosing).
For `CCCCNCCO.O=C(O)C(Cl)Cl`, the inhibition was 0% (Amaranthus retroflexus; herbicidal activity; 15 mg/mL, 21 days, pre-emergence greenhouse).
For `COC(=O)C1=CO[C@@H](C)[C@@H]2Cn3ccc4c5ccccc5nc-4c3C[C@H]12`, the IC50 was 212 nM (Plasmodium falciparum; parasite growth; 3D7; 96 h, blood stage).
`C[N+](C)(C)CCO.O=C([O-])C(Cl)Cl` has an inhibition of 0% (Amaranthus retroflexus; herbicidal activity; 15 mg/mL, 21 days, pre-emergence greenhouse).
With `CCN1CCC(CCNCc2cc3ccccc3nc2SCc2ccccc2)CC1` the inhibition was 85% (Acinetobacter baumannii; NADH-driven proton pumping, ACMA quenching; inverted membrane vesicles; 32 µg/mL).

Excerpt of the above:
`Cc1cccc2c1N(C(=O)n1ccnn1)CC2` has a germination rate of 16.7% and 40% and 10% and 34.6% and 15% and 19.4% (Arabidopsis thaliana; kai2 mutant, seeds; 3 µM).
For `COC(=O)C1=CO[C@@H](C)[C@@H]2Cn3ccc4c5ccccc5nc-4c3C[C@H]12`, the IC50 was 212 nM (Plasmodium falciparum; parasite growth; 3D7; 96 h, blood stage).
